Measurements from different studies.
Protocols differ between the studies behind these lines. Values joined by “and” are separate records of one study, mostly repeats; a detail may differ. Numbers after ± are the reported error.

With `CC(=O)N[C@H](C(=O)N[C@@H](CCCC(=O)OC(C)(C)C)C(=O)N[C@@H](CCC1CCCCC1)C(=O)N[C@@H](CC(=O)O)C(=O)COC(=O)c1c(C)cccc1C)C(C)(C)C` the tissue concentration was 4.02 mM and 3.63 mM and 11.7 mM (C57BL/6N mouse female, liver; intraperitoneal, dose not given, 24 h).
`CN1Cc2cc(Cl)ccc2-n2c(nnc2C2CCN(c3cccc([18F])n3)CC2)C1` has a tissue uptake of 1.87 ± 0.49 %ID/g (C57BL/6 mouse male, muscle; intravenous, 3.7 MBq, 60 min).
For `CSCC[C@H](NC(=O)CNC(=O)[C@H](CCCCN)NC(=O)[C@H](CC(C)C)NC(=O)[C@@H]1CCCN1C(=O)[C@H](CO)NC(=O)[C@H](Cc1c[nH]cn1)NC(=O)[C@H](Cc1c[nH]c2ccccc12)NC(=O)[C@H](CCCNC(=N)N)NC(=O)[C@H](CC(C)C)NC(=O)[C@H](CCCNC(=N)N)NC(=O)[C@H](Cc1c[nH]c2ccccc12)NC(=O)[C@H](CS)NC(=O)CCCCCNC(=O)CN1CCN(CC(=O)O)CCN(CC(=O)O)CCN(CC(=O)O)CC1)C(=O)O` [copper-64 labelled], the tissue uptake was 0.24 %ID/g (BALB/c nude mouse, Huh-7 tumour, brain; intravenous, 1.85 MBq, 18 h).
`CSCC[C@H](N)C(=O)N[C@@H](C)C(=O)N[C@@H](CCCNC(=N)N)C(=O)N[C@@H](CCCNC(=N)N)C(=O)N[C@@H](CC(=O)O)C(=O)N[C@@H](CCCCN)C(=O)N[C@H](C(=O)N[C@@H](CC(=O)O)C(=O)N[C@@H](Cc1ccccc1)C(=O)N[C@@H](C)C(=O)N[C@@H](CCCNC(=N)N)C(=O)N[C@@H](CCCNC(=N)N)C(=O)N[C@@H](CCCNC(=N)N)C(=O)N[C@@H](CCCNC(=N)N)C(=O)NCCCCCC(=O)NCCCCC(NC(=O)CCCCCNC(=O)[C@H](CCCNC(=N)N)NC(=O)[C@H](CCCNC(=N)N)NC(=O)[C@H](CCCNC(=N)N)NC(=O)[C@H](CCCNC(=N)N)NC(=O)[C@H](C)NC(=O)[C@H](Cc1ccccc1)NC(=O)[C@H](CC(=O)O)NC(=O)[C@@H](NC(=O)[C@H](CCCCN)NC(=O)[C@H](CC(=O)O)NC(=O)[C@H](CCCNC(=N)N)NC(=O)[C@H](CCCNC(=N)N)NC(=O)[C@H](C)NC(=O)[C@@H](N)CCSC)[C@@H](C)O)C(=O)NCCCCC(NC(=O)C(CCCCNC(=O)CCCCCNC(=O)[C@H](CCCNC(=N)N)NC(=O)[C@H](CCCNC(=N)N)NC(=O)[C@H](CCCNC(=N)N)NC(=O)[C@H](CCCNC(=N)N)NC(=O)[C@H](C)NC(=O)[C@H](Cc1ccccc1)NC(=O)[C@H](CC(=O)O)NC(=O)[C@@H](NC(=O)[C@H](CCCCN)NC(=O)[C@H](CC(=O)O)NC(=O)[C@H](CCCNC(=N)N)NC(=O)[C@H](CCCNC(=N)N)NC(=O)[C@H](C)NC(=O)[C@@H](N)CCSC)[C@@H](C)O)NC(=O)CCCCCNC(=O)[C@H](CCCNC(=N)N)NC(=O)[C@H](CCCNC(=N)N)NC(=O)[C@H](CCCNC(=N)N)NC(=O)[C@H](CCCNC(=N)N)NC(=O)[C@H](C)NC(=O)[C@H](Cc1ccccc1)NC(=O)[C@H](CC(=O)O)NC(=O)[C@@H](NC(=O)[C@H](CCCCN)NC(=O)[C@H](CC(=O)O)NC(=O)[C@H](CCCNC(=N)N)NC(=O)[C@H](CCCNC(=N)N)NC(=O)[C@H](C)NC(=O)[C@@H](N)CCSC)[C@@H](C)O)C(N)=O)[C@@H](C)O` (some centres unmarked) has a tissue distribution of 4.97% and 9.38% (mouse C57BL/6 female, spine; 3 h, radioiodinated peptide; relative to: total radioactivity).
`CC[C@H](C)[C@H](NC(=O)[C@H](CCCNC(=N)N)NC(=O)[C@H](CCCCN)NC(=O)[C@H](Cc1ccc(O)cc1)NC(=O)[C@H](CC(=O)O)NC(=O)[C@H](C)NC(=O)CNC(=O)CCOCCOCCOCCNC(=O)CN1CCN(CC(=O)O)CCN(CC(=O)O)CCN(CC(=O)O)CC1)C(=O)N[C@H](C(=O)N[C@@H](CC(C)C)C(=O)N[C@@H](CCCCN)C(=O)N[C@H](C(=O)N[C@@H](CC(N)=O)C(N)=O)C(C)C)[C@@H](C)O` [copper-64 labelled] gave a tissue uptake of 0.479 ± 0.123 %ID/g (ex vivo gamma counting; male C57BL/6J mouse, B16-F10 tumour, intestinal lymph node; intravenous, 1.85 MBq, 40 min).
`CSCC[C@H](N)C(=O)N[C@@H](C)C(=O)N[C@@H](Cc1c[nH]c2ccccc12)C(=O)N[C@@H](Cc1c[nH]cn1)C(=O)N[C@@H](CC(=O)O)C(=O)N[C@@H](CC(=O)O)C(=O)N[C@@H](CCC(=O)O)C(=O)N[C@@H](CCC(=O)O)C(=O)N[C@@H](Cc1ccccc1)C(=O)N[C@@H](C)C(=O)N[C@@H](CCCNC(=N)N)C(=O)N[C@@H](CCCNC(=N)N)C(=O)N[C@@H](CCCNC(=N)N)C(=O)N[C@@H](CCCNC(=N)N)C(=O)NCCCCCC(=O)NCCCCC(NC(=O)CCCCCNC(=O)[C@H](CCCNC(=N)N)NC(=O)[C@H](CCCNC(=N)N)NC(=O)[C@H](CCCNC(=N)N)NC(=O)[C@H](CCCNC(=N)N)NC(=O)[C@H](C)NC(=O)[C@H](Cc1ccccc1)NC(=O)[C@H](CCC(=O)O)NC(=O)[C@H](CCC(=O)O)NC(=O)[C@H](CC(=O)O)NC(=O)[C@H](CC(=O)O)NC(=O)[C@H](Cc1c[nH]cn1)NC(=O)[C@H](Cc1c[nH]c2ccccc12)NC(=O)[C@H](C)NC(=O)[C@@H](N)CCSC)C(=O)NCCCCC(NC(=O)C(CCCCNC(=O)CCCCCNC(=O)[C@H](CCCNC(=N)N)NC(=O)[C@H](CCCNC(=N)N)NC(=O)[C@H](CCCNC(=N)N)NC(=O)[C@H](CCCNC(=N)N)NC(=O)[C@H](C)NC(=O)[C@H](Cc1ccccc1)NC(=O)[C@H](CCC(=O)O)NC(=O)[C@H](CCC(=O)O)NC(=O)[C@H](CC(=O)O)NC(=O)[C@H](CC(=O)O)NC(=O)[C@H](Cc1c[nH]cn1)NC(=O)[C@H](Cc1c[nH]c2ccccc12)NC(=O)[C@H](C)NC(=O)[C@@H](N)CCSC)NC(=O)CCCCCNC(=O)[C@H](CCCNC(=N)N)NC(=O)[C@H](CCCNC(=N)N)NC(=O)[C@H](CCCNC(=N)N)NC(=O)[C@H](CCCNC(=N)N)NC(=O)[C@H](C)NC(=O)[C@H](Cc1ccccc1)NC(=O)[C@H](CCC(=O)O)NC(=O)[C@H](CCC(=O)O)NC(=O)[C@H](CC(=O)O)NC(=O)[C@H](CC(=O)O)NC(=O)[C@H](Cc1c[nH]cn1)NC(=O)[C@H](Cc1c[nH]c2ccccc12)NC(=O)[C@H](C)NC(=O)[C@@H](N)CCSC)C(N)=O` (some centres unmarked) has a tissue distribution of 1.21% and 0.83% and 2.01% (C57BL/6 mouse female, uterus; dose not given, 3 h; relative to: total).
For `CC[C@H](C)[C@H](NC(=O)[C@H](CCCNC(=N)N)NC(=O)[C@H](CCCCN)NC(=O)[C@H](Cc1ccc(O)cc1)NC(=O)[C@H](CC(=O)O)NC(=O)[C@H](C)NC(=O)CNC(=O)CCOCCOCCOCCNC(=O)CN1CCN(CC(=O)O)CCN(CC(=O)O)CCN(CC(=O)O)CC1)C(=O)N[C@H](C(=O)N[C@H](C(=O)N[C@@H](CCCCN)C(=O)N[C@H](C(=O)N[C@@H](CC(N)=O)C(N)=O)C(C)C)C(C)C)[C@@H](C)O` [copper-64 labelled], the tissue uptake was 0.91 ± 0.2 %ID/g (ex vivo gamma counting; male C57BL/6J mouse, B16-F10 tumour, intestinal lymph node; intravenous, 1.85 MBq, 40 min).
`CC[C@H](C)[C@H](NC(=O)[C@H](CCCCN)NC(=O)CNC(=O)[C@H](CC(C)C)NC(=O)[C@H](Cc1ccccc1)NC(=O)[C@H](CCCCN)NC(=O)[C@H](CO)NC(=O)[C@H](Cc1ccccc1)NC(=O)[C@H](Cc1c[nH]c2ccccc12)NC(=O)[C@H](CCC(N)=O)NC(=O)[C@@H](NC(=O)[C@H](Cc1ccccc1)NC(=O)CCCCCNC(=O)CN1CCN(CC(=O)O)CCN(CC(=O)O)CCN(CC(=O)O)CC1)C(C)C)C(=O)N[C@@H](CCC(=O)O)C(=O)N1CCC[C@H]1C(=O)N[C@@H](CC(=O)O)C(=O)N[C@H](C(=O)N[C@@H](CO)C(=O)N[C@@H](CCC(N)=O)C(=O)N[C@H](C(=O)N[C@@H](CCC(N)=O)C(=O)N[C@@H](CC(=O)O)C(=O)N1CCC[C@H]1C(=O)N[C@@H](CC(N)=O)C(=O)N[C@@H](CC(=O)O)C(=O)N[C@@H](CCC(N)=O)C(=O)N[C@@H](Cc1ccc(O)cc1)C(=O)N[C@@H](CCC(=O)O)C(=O)N1CCC[C@H]1C(=O)N[C@@H](Cc1ccccc1)C(=O)O)C(C)C)C(C)C` [copper-64 labelled] has a tissue uptake of 0.32 ± 0.02 %ID/g (C57BL/6 male mouse, tumour-naive, brain; 2 h).
